Measured values of several laboratories.
Compare with care: the assays were run in different laboratories. Numbers after ± are the reported error.
gag-pol reverse transcriptase: Gag-Pol polyprotein, reverse transcriptase (gag-pol, Human immunodeficiency virus 1, UniProt P03366)
ACTA1 pyrene-labeled: Actin, alpha skeletal muscle, pyrene-labeled (ACTA1, Oryctolagus cuniculus, UniProt P68135)
CHUK: Inhibitor of nuclear factor kappa-B kinase subunit alpha (CHUK, Homo sapiens, UniProt O15111)
Voltage-dependent P/Q-type calcium channel subunit alpha-1A: Voltage-dependent P/Q-type calcium channel subunit alpha-1A (Homo sapiens, UniProt O00555)

With `CN1CCN(c2cc(-c3ccncc3)c(-c3ccc4ccccc4c3)nn2)CC1` the inhibition was 11.1% (Leukotriene B4 receptor 1 (LTB4R, Homo sapiens, UniProt Q15722); antagonist, FLIPR; 10 µM).
The inhibition of `O=C1CSC(c2c(Cl)cccc2Cl)N1c1cccc(S(=O)(=O)Nc2nccs2)c1` (stereo not drawn) is reported as 11.4% (gag-pol reverse transcriptase; 4 µM).
`C[C@@H](O)[C@@H](CO)NC(=O)[C@@H](CCCNC(=N)N)NC(=O)[C@@H]1CCCN1C(=O)[C@@H]1CSSC[C@H](NC(=O)[C@H](Cc2ccccc2)NC(=O)CN2CCN(CC(=O)O)CCN(CC(=O)O)CCN(CC(=O)O)CC2)C(=O)N[C@@H](Cc2ccc(O)cc2)C(=O)N[C@@H](Cc2ccccc2)C(=O)N[C@@H](CCC(N)=O)C(=O)N[C@@H](CC(N)=O)C(=O)N1` [gallium-68 labelled] has a tissue uptake of 0.02 %ID/g (Wistar rat, thyroid; intravenous, 8 MBq, 120 min, group mean).
`CN(CCN1CCC(OC(=O)Nc2ccccc2-c2ccccc2)CC1)C(=O)c1ccc(CN2CCC(C(N)=O)CC2)cc1` has an inhibition of 17% (rat central I2 site; radioligand binding; 1 µM, added: [3H]idazoxan 2.0 nM).
With `COC1(C2CSC(=O)N2)CC2CC(CCC(C)C=CC=CCCC(C)=CC(=O)O2)O1` (stereo not drawn) the inhibition was 21% (ACTA1 pyrene-labeled; actin polymerization, pyrene actin; 1 µM; reference: vehicle).
For `NC(=O)CC[C@H](NC(=O)[C@@H]1CCCN1C(=O)[C@H](CCC(N)=O)NC(=O)[C@@H]1CCCN1C(=O)[C@@H](N)Cc1ccc(O)cc1)C(=O)O`, the inhibition was 89.5% (Dipeptidyl peptidase 4 (DPP4, Homo sapiens, UniProt P27487); inhibitor; 100 µM, 20 min, pH 8.0, 37 °C, added: Gly-Pro-pNA 500 µM).
`CO[C@]1([C@@H]2CSC(=O)N2C(=O)c2ccccc2)C[C@H]2C[C@@H](CC[C@H](C)/C=C\C=C\CC/C(C)=C\C(=O)O2)O1` has an inhibition of 17% (ACTA1 pyrene-labeled; actin polymerization, pyrene actin; 0.1 µM; reference: vehicle).
The inhibition of `COCc1c(-c2cc3cc(C)cc(OC)c3s2)c2c(N)ncnn2c1CN1CCNC(=O)C1` is reported as -16% (phosphodiesterase 3; enzyme activity; 10 µM).
For `COc1cc2c(Oc3ccc4[nH]c(C)cc4c3F)ccnc2cc1OCC1(N)CC1`, “grade 1 or 2 blurred vision” read 9.1% (paediatric recurrent refractory sarcoma; 12 mg).
`[2H]c1c([2H])c([C@]2([2H])CCCN2C(=O)C(C)(C)Oc2ccc3cn[nH]c3c2)c([2H])c([2H])c1C([2H])([2H])[2H]` gave a remaining binding of 82% (Myosin light chain kinase 2, skeletal/cardiac muscle (MYLK2, Homo sapiens, UniProt Q9H1R3); KINOMEscan; 1 µM; reference: DMSO control).
With `c1ccc(C(NCCNC(c2ccccc2)c2ccccc2)c2ccccc2)cc1` the inhibition was -14% (CHUK; enzyme activity; 10 µM, Eurofins selectivity panel).
`CN(C(=O)n1cnc(-c2ccc[n+]([O-])c2)c1)C1CCCCC1` has an inhibition of -7% (ryanodine receptor RyR3, rat; binding; 10 µM, added: [3H]ryanodine).
`C#Cc1n[nH]c2c(-c3cn(C(C)c4ccccn4)c(=O)[nH]c3=O)cc(F)cc12` (stereo not drawn) gave an inhibition of 8.6% (Phosphatidylinositol 4,5-bisphosphate 3-kinase catalytic subunit delta isoform, with p85 alpha (PIK3CD, Homo sapiens, UniProt O00329); kinase activity, inhibitor; 1 µM).
With `O=C1CSC(c2ccc(Cl)cc2)N1c1nc(-c2ccc(S(=O)(=O)N3CCOCC3)cc2)cs1` (stereo not drawn) the inhibition was 81.3% (gag-pol reverse transcriptase; 4 µM).
`COc1ccc(N2C(=O)N(c3c(C)cccc3Cl)Cc3cnc(Nc4ccc(C5CCN(C)CC5)cc4OC)nc32)nc1` has an inhibition of 43% (MAP/microtubule affinity-regulating kinase 4 (MARK4, Homo sapiens, UniProt Q96L34); kinase activity; 0.5 µM).
For `COc1cc(Nc2ncc(F)c(Nc3ccc4c(n3)NC(=O)C(C)(C)O4)n2)cc(OC)c1OC`, the inhibition was 76% (5'-AMP-activated protein kinase catalytic subunit alpha-2 (PRKAA2, Homo sapiens, UniProt P54646); KINOMEscan; 10 µM, AMPK-alpha2).
For `Oc1ccc2c3c1O[C@H]1[C@@H](O)CC[C@@]4(O)[C@@H](C2)N(CC2CCC2)CC[C@]314`, “log2 fold change” read -0.279 (G-protein coupled receptor 151 (GPR151, Homo sapiens, UniProt Q8TDV0); β-arrestin recruitment, TANGO luminescence, refers to: GPR151; concentration not given; reference: basal luminescence).
`O=C(Nc1cnccc1Cl)N1CCN(Cc2ccc3c(c2)OC(F)(F)O3)CC1` has an inhibition of -5% (Cholecystokinin receptor type A (CCKAR, Homo sapiens, UniProt P32238); binding; 10 µM, added: [3H]L-364,718).
`O=C(O[C@@H]1Cc2c(O)cc(O)cc2O[C@@H]1c1cc(O)c(=O)c2c(O)c(O)cc([C@H]3Oc4cc(O)cc(O)c4C[C@H]3OC(=O)c3cc(O)c(O)c(O)c3)c2c1)c1cc(O)c(O)c(O)c1` — result for inhibition: “inhibited” (Protein disulfide-isomerase A3 (PDIA3, Homo sapiens, UniProt P30101); di-eosin-GSSG reductase activity; 20 µM, 15 min).
With `C[C@H](C(=O)N[C@H]1COc2ccccc2[C@@H]1S(C)(=O)=O)c1ccc(F)cc1` the inhibition was 0% (Ca2+/calmodulin-dependent protein kinase II (rat); Eurofins selectivity panel; 10 µM).
The inhibition of `O=C(Nc1cccnn1)N1CCC(=Cc2cccc(Oc3ccc(C(F)(F)F)cn3)c2)CC1` is reported as -16% (ryanodine receptor RyR3, rat; binding; 10 µM, added: [3H]ryanodine).
`C/C1=C/C(=O)O[C@@H]2C[C@@H](CC[C@H](C)/C=C\C=C\CC1)O[C@@](OC(=O)c1ccccc1)([C@@H]1CSC(=O)N1)C2` has an inhibition of 23% (ACTA1 pyrene-labeled; actin polymerization, pyrene actin; 0.1 µM; reference: vehicle).
The inhibition of `O=C1CSC(c2ccc(Br)cc2)N1c1cccc(S(=O)(=O)Nc2nccs2)c1` (stereo not drawn) is reported as 11.9% (gag-pol reverse transcriptase; 4 µM).
`Cc1ncc(C)n2nc(/C=C/c3nc(N4CCCC4)cc(N4CCOCC4)n3)nc12` has an inhibition of 10% (L-type calcium channel verapamil site; radioligand binding; 10 µM).
For `CCN(C)C(=O)Oc1cccc([C@H](C)N(C)C)c1`, the inhibition was 7% (Voltage-dependent P/Q-type calcium channel subunit alpha-1A; ion current, antagonist; HEK293; 30 µM).
With `O=C1CSC(c2cccc(F)c2)N1c1nc(-c2ccc(S(=O)(=O)N3CCCC3)cc2)cs1` (stereo not drawn) the inhibition was 54.5% (gag-pol reverse transcriptase; 4 µM).
`Cc1ccccc1NC(=O)Nc1ccc(CC(=O)N[C@@H](CCCCNC(=O)/C=C/c2cccnc2)C(=O)N[C@@H](CCCC(=O)O)C(=O)NC2(C(=O)NCCOCCOCCOCCOCC(=O)N[C@@H](CCCCNC(=S)Nc3ccc(CCCN(CCN4CCN(CP(=O)(O)O)CCN(CP(=O)(O)O)CC4)CC(=O)O)cc3)C(N)=O)CCCCC2)cc1` [gallium-68 labelled] gave a tumour uptake of 13.7 ± 2.4 %ID/g (mice with B16-F10 tumour, tumour; intravenous, 2 h).
`Cc1nc(Nc2ccc(CC(=O)O)cc2)nc(Nc2ccc(F)c(C(F)(F)F)c2)c1C`: inhibition “no inhibition” (3',5'-cyclic-AMP phosphodiesterase 4C, isoform PDE4C1 (PDE4C, Homo sapiens, UniProt Q08493); enzyme activity, fluorescence polarization; 200 µM).
The inhibition of `C/C1=C/C(=O)O[C@@H]2C[C@@H](CC[C@H](C)/C=C\C=C\CC1)O[C@@](O)([C@@H]1CSC(=O)N1Cc1ccccc1)C2` is reported as 64% (ACTA1 pyrene-labeled; actin polymerization, pyrene actin; 1 µM; reference: vehicle).
With `CC(C)CC(=O)OC[C@H]1O[C@@](C#N)(c2ccc3c(N)ncnn23)[C@H](O)[C@@H]1O` the inhibition was 14% (Gamma-aminobutyric acid type B receptor subunit 1 (GABBR1, Homo sapiens, UniProt Q9UBS5); 20 µM).
For `CC[C@H](C)[C@H](NC(=O)[C@@H](NC(=O)[C@H](N)Cc1ccccc1)C(C)C)C(=O)N[C@@H](C)C(N)=O`, the inhibition was 64.9% (Amyloid-beta precursor protein (APP, Homo sapiens, UniProt P05067); amyloid-beta aggregation, thioflavin T fluorescence; 1.0 µM, 144 h, added: 2 µM amyloid-beta).
`O=C(c1ccc(Cl)cc1)N1CCN2C(=O)N(OC(=O)N3CCOc4ccccc43)C(=O)C2C1` (stereo not drawn): “mean protein ratio” 1.07 (Complement C1r subcomponent-like protein (C1RL, Homo sapiens, UniProt Q9NZP8); MS-based ABPP; SW-620 conditioned medium; 10 µM, 1 h, 37 °C; reference: compound over DMSO, lower = more inhibition).
The inhibition of `N.N.O=C([O-])C1(C(=O)[O-])CCC1.[Pt+2]` is reported as 3% (Voltage-dependent P/Q-type calcium channel subunit alpha-1A; antagonist; 3 µM).
The inhibition of `CO[C@]1([C@@H]2CSC(=O)N2CCCO)C[C@H]2C[C@@H](CC[C@H](C)/C=C\C=C\CC/C(C)=C\C(=O)O2)O1` is reported as 21% (ACTA1 pyrene-labeled; actin polymerization, pyrene actin; 1 µM; reference: vehicle).
With `Cn1cc(-c2cc(F)cc(N3CCn4c(cc5c4CCCC5)C3=O)c2CO)cc(Nc2ccc(N3CCN(C4COC4)CC3)cn2)c1=O` the inhibition was -9% (Protein kinase C beta type, isoform beta-I (PRKCB, Homo sapiens, UniProt P05771); kinase activity, inhibitor, SelectScreen kinase profiling; 0.1 µM, added: ATP at apparent Km).
`C[C@H]1CN(c2n[nH]c3nc(N[C@H]4CC[C@H](NS(=O)(=O)CCC(F)(F)F)CC4)ncc23)CCO1` gave a relative abundance of 1.04 (CHUK; inhibitor, Kinobeads competition profiling; 0.16 µM; reference: vehicle).
With `Cn1cc(-c2cccc(N3CCc4c(sc5c4CC(C)(C)C5)C3=O)c2CO)cc(Nc2ccncn2)c1=O` the inhibition was 19% (3-phosphoinositide-dependent protein kinase 1 (PDPK1, Homo sapiens, UniProt O15530); kinase activity, inhibitor, SelectScreen; 1 µM, added: ATP).
For `Cn1cccc1-c1cccnc1`, the inhibition was -10.3% (Beta-3 adrenergic receptor (ADRB3, Homo sapiens, UniProt P13945); binding; 50 µM).
The inhibition of `COc1cccc(C2SCC(=O)N2c2cccc(S(=O)(=O)Nc3nccs3)c2)c1` (stereo not drawn) is reported as 33.2% (gag-pol reverse transcriptase; 4 µM).
`COc1cc2c(c(OC)c1OC)-c1ccc(OC)c(=O)cc1[C@@H](NC(C)=O)CC2` has an inhibition of 5% (Voltage-dependent P/Q-type calcium channel subunit alpha-1A; ion current, antagonist; HEK293; 30 µM).
`O=c1ccc2ccccc2o1` has an inhibition of -2.06% (NMDA receptor; radioligand binding; 10 µM).
`O=C1CSC(c2ccc(Cl)cc2)N1c1nc(-c2ccc(S(=O)(=O)N3CCCC3)cc2)cs1` (stereo not drawn) has an inhibition of 78.1% (gag-pol reverse transcriptase; 4 µM).

For quick reference, copied from above:
`CO[C@]1([C@@H]2CSC(=O)N2C(=O)c2ccccc2)C[C@H]2C[C@@H](CC[C@H](C)/C=C\C=C\CC/C(C)=C\C(=O)O2)O1` has an inhibition of 17% (ACTA1 pyrene-labeled; actin polymerization, pyrene actin; 0.1 µM; reference: vehicle).
`Cc1nc(Nc2ccc(CC(=O)O)cc2)nc(Nc2ccc(F)c(C(F)(F)F)c2)c1C`: inhibition “no inhibition” (3',5'-cyclic-AMP phosphodiesterase 4C, isoform PDE4C1 (PDE4C, Homo sapiens, UniProt Q08493); enzyme activity, fluorescence polarization; 200 µM).
`COc1ccc(N2C(=O)N(c3c(C)cccc3Cl)Cc3cnc(Nc4ccc(C5CCN(C)CC5)cc4OC)nc32)nc1` has an inhibition of 43% (MAP/microtubule affinity-regulating kinase 4 (MARK4, Homo sapiens, UniProt Q96L34); kinase activity; 0.5 µM).
